{"data": "Measurements from different studies", "cell line": "HCT-116", "note": "Protocols differ between the studies behind these lines. Numbers after ± are the reported error."}
{"Structure (SMILES)": "Cc1ccc(NCC(=O)n2ncc3c(=N)n(N[C@@H]4O[C@H](CO)[C@@H](O)[C@H](O)[C@H]4O)cnc32)cc1", "observed": "cell growth or viability", "method": "MTT", "time": "48 h", "IC50": "0.074 µM"}
{"Structure (SMILES)": "CC(C)c1cccc(C(C)C)c1-n1ccn(-c2c(C(C)C)cccc2C(C)C)[c]1=[Au][Cl]", "observed": "cell viability", "time": "72 h", "IC50": "39.7 ± 4.9 µM"}
{"Structure (SMILES)": "Cc1c(N)nc([C@H](CC(N)=O)NC[C@H](N)C(N)=O)nc1C(=O)N[C@H](C(=O)N[C@H](C)[C@@H](O)[C@H](C)C(=O)N[C@H](C(=O)NCCC1=N[C@@H](c2nc(C(=O)NCCCCN=C(N)N)cs2)CS1)[C@@H](C)O)[C@@H](O[C@@H]1O[C@@H](CO)[C@@H](O)[C@H](O)[C@@H]1O[C@H]1O[C@H](CO)[C@@H](O)[C@H](OC(N)=O)[C@@H]1O)c1cnc[nH]1", "observed": "cell growth or viability", "method": "resazurin", "time": "96 h", "IC50": "1.86 µg/mL"}
{"Structure (SMILES)": "O=C1c2c(O)cc(O)cc2OC(c2ccc(O)c(O)c2)C1O (centres unmarked)", "observed": "cell growth or viability", "method": "MTT", "time": "48 h", "IC50": "32 µg/mL"}
{"Structure (SMILES)": "O=c1[nH]c2ccccc2nc1/C=C/c1ccccc1[N+](=O)[O-]", "observed": "cell growth or viability", "method": "MTT", "time": "72 h", "IC50": "> 50 µM"}
{"Structure (SMILES)": "COc1cc(-c2ccc(C(=O)N/N=C/c3ccc(O)cc3)c(C)n2)cc(OC)c1OC", "observed": "cell growth or viability", "method": "MTT", "IC50": "11.7 µM"}
{"Structure (SMILES)": "O=c1[nH]c2ccccc2nc1/C=C/c1ccccc1", "observed": "cell growth or viability", "method": "MTT", "time": "72 h", "IC50": "12.3 µM"}
{"Structure (SMILES)": "N#CC(C(=O)Nc1nnc(NC(=O)c2ccccc2)s1)=C1Nc2ccccc2O1", "time": "48 h", "IC50": "5.98 ± 0.3 µM"}
{"Structure (SMILES)": "Cn1c(=O)c(/C=C/c2ccccn2)nc2ccccc21", "observed": "cell growth or viability", "method": "MTT", "time": "72 h", "IC50": "7.62 µM"}
{"Structure (SMILES)": "COc1ccc(/C=N/NC(=O)c2ccc(-c3cc(OC)c(OC)c(OC)c3)nc2C)cc1OC", "observed": "cell growth or viability", "method": "MTT", "IC50": "6.45 µM"}
{"Structure (SMILES)": "CN1CCN(c2ccc3nc(-c4c(N)c5c(F)cccc5[nH]c4=O)[nH]c3c2)CC1", "observed": "cell growth or viability", "method": "MTT", "time": "72 h", "IC50": "3.05 µM"}
{"Structure (SMILES)": "O=C(CNc1ccc(F)cc1)n1ncc2c1ncn1nc(SCCO)nc21", "observed": "cell growth or viability", "method": "MTT", "time": "48 h", "IC50": "0.587 µM"}
{"Structure (SMILES)": "CN(C)C/C=C/C(=O)Nc1cccc(S(=O)(=O)N2CCC(NC(=O)c3n[nH]cc3NC(=O)c3c(Cl)cccc3Cl)CC2)c1", "observed": "cell growth or viability", "method": "ATP luminescence", "time": "72 h", "IC50": "0.0051 µM"}
{"Structure (SMILES)": "Cc1ccc(-n2c(SCC(=O)NNC(=O)Nc3ccc(Cl)cc3)nc3ccccc3c2=O)cc1", "IC50": "7.83 ± 0.6 µM"}
{"Structure (SMILES)": "CC(=O)OCCSc1nc2c3cnn(C(=O)CNc4ccc(F)cc4)c3ncn2n1", "observed": "cell growth or viability", "method": "MTT", "time": "48 h", "IC50": "0.009 µM"}
{"Structure (SMILES)": "CCOc1ccc(/C=N/NC(=O)c2ccc(-c3cc(OC)c(OC)c(OC)c3)nc2C)cc1", "observed": "cell growth or viability", "method": "MTT", "IC50": "25.2 µM"}
{"Structure (SMILES)": "O=C(CNc1ccc(F)cc1)n1ncc2c1ncn1[nH]c(=S)nc21", "observed": "cell growth or viability", "method": "MTT", "time": "48 h", "IC50": "0.926 µM"}
{"Structure (SMILES)": "CCCCCCSc1nnc(-c2ccc(-c3cc(OC)c(OC)c(OC)c3)nc2C)o1", "observed": "cell growth or viability", "method": "MTT", "IC50": "15.3 µM"}
{"Structure (SMILES)": "CCN1CCC2(CC1)C/C(=N\\N=C\\c1ccc(N(C)C)cc1)c1ccccc1O2", "time": "48 h", "IC50": "56.2 ± 2.39 µM"}
{"Structure (SMILES)": "N#CC(=Cc1ccc(Cl)cc1Cl)C(=O)Nc1nnc(NC(=O)c2ccccc2)s1", "observed": "cell growth or viability", "method": "MTT", "time": "48 h", "IC50": "3.97 µM"}
{"Structure (SMILES)": "COc1ccc(-n2c(SCC(=O)NNC(=O)Nc3ccc(C(F)(F)F)cc3Cl)nc3ccccc3c2=O)cc1", "IC50": "85.2 ± 4.5 µM"}
{"Structure (SMILES)": "O=c1[nH]c2ccccc2nc1/C=C/c1ccc2ccccc2c1", "observed": "cell growth or viability", "method": "MTT", "time": "72 h", "IC50": "17.9 µM"}
{"Structure (SMILES)": "COc1ccc(-n2c(SCC(=O)NNC(=O)Nc3ccc(Cl)cc3)nc3ccccc3c2=O)cc1", "IC50": "64.3 ± 3.5 µM"}
{"Structure (SMILES)": "COc1cc(-c2ccc(C(=O)N/N=C/c3cc(Cl)ccc3Cl)c(C)n2)cc(OC)c1OC", "observed": "cell growth or viability", "method": "MTT", "IC50": "21.2 µM"}
{"Structure (SMILES)": "Cc1ccc(NC(=O)NNC(=O)CSc2nc3ccccc3c(=O)n2-c2ccc(Cl)cc2)cc1", "IC50": "67.7 ± 3.8 µM"}
{"Structure (SMILES)": "N#CC(C(=O)Nc1nnc(NC(=O)c2ccccc2)s1)=C1Oc2cccnc2O1", "observed": "cell growth or viability", "method": "MTT", "time": "48 h", "IC50": "18.3 µM"}
{"Structure (SMILES)": "Oc1c(Cl)cc(Cl)c(Cl)c1Cc1c(O)c(Cl)cc(Cl)c1Cl", "observed": "cell growth or viability", "time": "48 h", "IC50": "~6 µM"}
{"Structure (SMILES)": "CC(=O)OCCSc1nc2c3cnn(C(=O)CNc4ccc(C)cc4)c3ncn2n1", "observed": "cell growth or viability", "method": "MTT", "time": "48 h", "IC50": "0.009 µM"}
{"Structure (SMILES)": "COc1ccc(-n2c(SCC(=O)NNC(=O)NCc3ccccc3)nc3ccccc3c2=O)cc1", "IC50": "91.2 ± 4.9 µM"}
{"Structure (SMILES)": "CCCCNNC(=O)c1ccc(Br)cc1", "observed": "cell growth or viability", "method": "ATP luminescence", "time": "96 h", "IC50": "11.2 µM"}
{"Structure (SMILES)": "COc1ccc(C=C(C#N)C(=O)Nc2nnc(NC(=O)c3ccccc3)s2)cc1", "time": "48 h", "IC50": "8.15 ± 0.7 µM"}
{"Structure (SMILES)": "Fc1ccccc1/C=C/c1nc2ccccc2nc1Cl", "observed": "cell growth or viability", "method": "MTT", "time": "72 h", "IC50": "18.3 µM"}
{"Structure (SMILES)": "N#CC(C(=O)Nc1nnc(NC(=O)c2ccccc2)s1)C(=S)Nc1ccccc1 (centres unmarked)", "observed": "cell growth or viability", "method": "MTT", "time": "48 h", "IC50": "21.6 µM"}
{"Structure (SMILES)": "Cn1c(=O)c(/C=C/c2ccccc2Cl)nc2ccccc21", "observed": "cell growth or viability", "method": "MTT", "time": "72 h", "IC50": "4.06 µM"}
{"Structure (SMILES)": "COc1cc(C=C(C#N)C(=O)Nc2nnc(NC(=O)c3ccccc3)s2)ccc1O", "observed": "cell growth or viability", "method": "MTT", "time": "48 h", "IC50": "10.9 µM"}
{"Structure (SMILES)": "CC(=O)c1nc2ccccc2n1Cc1cn([C@@H]2OC[C@@H](O)[C@H](O)[C@H]2O)nn1", "observed": "cell growth or viability", "method": "LDH", "time": "48 h", "IC50": "5.7 µM"}
{"Structure (SMILES)": "CC(=O)OCC(CSc1nc2c3cnn(C(=O)CNc4ccc(C)cc4)c3ncn2n1)OC(C)=O (centres unmarked)", "observed": "cell growth or viability", "method": "MTT", "time": "48 h", "IC50": "0.091 µM"}
{"Structure (SMILES)": "O=C(CSc1nc2ccccc2c(=O)n1-c1ccc(Cl)cc1)NNC(=O)Nc1ccc(F)cc1", "IC50": "24.8 ± 1.9 µM"}
{"Structure (SMILES)": "COc1ccc(-c2cc(-c3ccc(Cl)cc3)c3c(=O)[nH]c(=O)[nH]c3n2)cc1", "observed": "cell growth or viability", "method": "MTT", "time": "48 h", "IC50": "< 5 µM"}
{"Structure (SMILES)": "N#CC(C(=O)Nc1nnc(NC(=O)c2ccccc2)s1)=C1SCCN1c1ccccc1", "observed": "cell growth or viability", "method": "MTT", "time": "48 h", "IC50": "40.2 µM"}
{"Structure (SMILES)": "Cc1ccc(-n2c(SCC(=O)NNC(=O)Nc3ccc(F)cc3)nc3ccccc3c2=O)cc1", "IC50": "39.8 ± 2.3 µM"}
{"Structure (SMILES)": "Cc1cc(-c2ccccc2)n(-c2nnc(NC(=O)c3ccccc3)s2)c(=O)c1C#N", "observed": "cell growth or viability", "method": "MTT", "time": "48 h", "IC50": "68 µM"}
{"Structure (SMILES)": "O=c1[nH]c2ccccc2nc1/C=C/c1cccs1", "observed": "cell growth or viability", "method": "MTT", "time": "72 h", "IC50": "31.1 µM"}
{"Structure (SMILES)": "COc1cc([C@H]2Oc3cc(O)cc(O)c3C(=O)[C@@H]2O)ccc1O", "observed": "cell growth or viability", "method": "MTT", "time": "48 h", "IC50": "36 µg/mL"}
{"note": "A few entries again:"}
{"Structure (SMILES)": "Cn1c(=O)c(/C=C/c2ccccc2Cl)nc2ccccc21", "observed": "cell growth or viability", "method": "MTT", "time": "72 h", "IC50": "4.06 µM"}
{"Structure (SMILES)": "COc1cc(C=C(C#N)C(=O)Nc2nnc(NC(=O)c3ccccc3)s2)ccc1O", "observed": "cell growth or viability", "method": "MTT", "time": "48 h", "IC50": "10.9 µM"}
{"Structure (SMILES)": "CC(=O)c1nc2ccccc2n1Cc1cn([C@@H]2OC[C@@H](O)[C@H](O)[C@H]2O)nn1", "observed": "cell growth or viability", "method": "LDH", "time": "48 h", "IC50": "5.7 µM"}
{"Structure (SMILES)": "CC(=O)OCC(CSc1nc2c3cnn(C(=O)CNc4ccc(C)cc4)c3ncn2n1)OC(C)=O (centres unmarked)", "observed": "cell growth or viability", "method": "MTT", "time": "48 h", "IC50": "0.091 µM"}
{"Structure (SMILES)": "O=C(CSc1nc2ccccc2c(=O)n1-c1ccc(Cl)cc1)NNC(=O)Nc1ccc(F)cc1", "IC50": "24.8 ± 1.9 µM"}
{"Structure (SMILES)": "COc1ccc(-c2cc(-c3ccc(Cl)cc3)c3c(=O)[nH]c(=O)[nH]c3n2)cc1", "observed": "cell growth or viability", "method": "MTT", "time": "48 h", "IC50": "< 5 µM"}
